Measurements pooled from the literature.
Values joined by “and” are separate records of one study, mostly repeats; a detail may differ. ± marks the error that the study gave. No end group written: not given here.
CHRM1: Muscarinic acetylcholine receptor M1 (CHRM1, Homo sapiens, UniProt P11229)
UniProt P11229, sequence (whole entry, looked up): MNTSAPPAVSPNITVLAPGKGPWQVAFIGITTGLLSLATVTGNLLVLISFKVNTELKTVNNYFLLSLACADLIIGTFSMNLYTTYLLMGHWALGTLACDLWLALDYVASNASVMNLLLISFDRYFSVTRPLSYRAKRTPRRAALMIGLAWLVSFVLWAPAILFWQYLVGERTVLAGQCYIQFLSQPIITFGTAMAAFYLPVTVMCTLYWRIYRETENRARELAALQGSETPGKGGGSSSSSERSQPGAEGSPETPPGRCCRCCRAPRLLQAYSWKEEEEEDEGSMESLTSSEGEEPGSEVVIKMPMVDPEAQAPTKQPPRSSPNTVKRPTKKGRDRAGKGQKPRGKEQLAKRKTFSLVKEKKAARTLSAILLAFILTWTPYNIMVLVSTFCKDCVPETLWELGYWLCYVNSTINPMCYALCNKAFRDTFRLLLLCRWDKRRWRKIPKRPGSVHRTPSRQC
T1: c-di-GMP riboswitch (Clostridium acetobutylicum); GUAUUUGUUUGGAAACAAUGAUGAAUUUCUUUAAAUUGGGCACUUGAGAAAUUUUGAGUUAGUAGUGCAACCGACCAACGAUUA
B1: side-chain stapled; chain GGRTKQEARKSTGG (also: sidechain bridge or staple (positions not given here))
UniProt Q9Y5Y9, sequence (whole entry, looked up): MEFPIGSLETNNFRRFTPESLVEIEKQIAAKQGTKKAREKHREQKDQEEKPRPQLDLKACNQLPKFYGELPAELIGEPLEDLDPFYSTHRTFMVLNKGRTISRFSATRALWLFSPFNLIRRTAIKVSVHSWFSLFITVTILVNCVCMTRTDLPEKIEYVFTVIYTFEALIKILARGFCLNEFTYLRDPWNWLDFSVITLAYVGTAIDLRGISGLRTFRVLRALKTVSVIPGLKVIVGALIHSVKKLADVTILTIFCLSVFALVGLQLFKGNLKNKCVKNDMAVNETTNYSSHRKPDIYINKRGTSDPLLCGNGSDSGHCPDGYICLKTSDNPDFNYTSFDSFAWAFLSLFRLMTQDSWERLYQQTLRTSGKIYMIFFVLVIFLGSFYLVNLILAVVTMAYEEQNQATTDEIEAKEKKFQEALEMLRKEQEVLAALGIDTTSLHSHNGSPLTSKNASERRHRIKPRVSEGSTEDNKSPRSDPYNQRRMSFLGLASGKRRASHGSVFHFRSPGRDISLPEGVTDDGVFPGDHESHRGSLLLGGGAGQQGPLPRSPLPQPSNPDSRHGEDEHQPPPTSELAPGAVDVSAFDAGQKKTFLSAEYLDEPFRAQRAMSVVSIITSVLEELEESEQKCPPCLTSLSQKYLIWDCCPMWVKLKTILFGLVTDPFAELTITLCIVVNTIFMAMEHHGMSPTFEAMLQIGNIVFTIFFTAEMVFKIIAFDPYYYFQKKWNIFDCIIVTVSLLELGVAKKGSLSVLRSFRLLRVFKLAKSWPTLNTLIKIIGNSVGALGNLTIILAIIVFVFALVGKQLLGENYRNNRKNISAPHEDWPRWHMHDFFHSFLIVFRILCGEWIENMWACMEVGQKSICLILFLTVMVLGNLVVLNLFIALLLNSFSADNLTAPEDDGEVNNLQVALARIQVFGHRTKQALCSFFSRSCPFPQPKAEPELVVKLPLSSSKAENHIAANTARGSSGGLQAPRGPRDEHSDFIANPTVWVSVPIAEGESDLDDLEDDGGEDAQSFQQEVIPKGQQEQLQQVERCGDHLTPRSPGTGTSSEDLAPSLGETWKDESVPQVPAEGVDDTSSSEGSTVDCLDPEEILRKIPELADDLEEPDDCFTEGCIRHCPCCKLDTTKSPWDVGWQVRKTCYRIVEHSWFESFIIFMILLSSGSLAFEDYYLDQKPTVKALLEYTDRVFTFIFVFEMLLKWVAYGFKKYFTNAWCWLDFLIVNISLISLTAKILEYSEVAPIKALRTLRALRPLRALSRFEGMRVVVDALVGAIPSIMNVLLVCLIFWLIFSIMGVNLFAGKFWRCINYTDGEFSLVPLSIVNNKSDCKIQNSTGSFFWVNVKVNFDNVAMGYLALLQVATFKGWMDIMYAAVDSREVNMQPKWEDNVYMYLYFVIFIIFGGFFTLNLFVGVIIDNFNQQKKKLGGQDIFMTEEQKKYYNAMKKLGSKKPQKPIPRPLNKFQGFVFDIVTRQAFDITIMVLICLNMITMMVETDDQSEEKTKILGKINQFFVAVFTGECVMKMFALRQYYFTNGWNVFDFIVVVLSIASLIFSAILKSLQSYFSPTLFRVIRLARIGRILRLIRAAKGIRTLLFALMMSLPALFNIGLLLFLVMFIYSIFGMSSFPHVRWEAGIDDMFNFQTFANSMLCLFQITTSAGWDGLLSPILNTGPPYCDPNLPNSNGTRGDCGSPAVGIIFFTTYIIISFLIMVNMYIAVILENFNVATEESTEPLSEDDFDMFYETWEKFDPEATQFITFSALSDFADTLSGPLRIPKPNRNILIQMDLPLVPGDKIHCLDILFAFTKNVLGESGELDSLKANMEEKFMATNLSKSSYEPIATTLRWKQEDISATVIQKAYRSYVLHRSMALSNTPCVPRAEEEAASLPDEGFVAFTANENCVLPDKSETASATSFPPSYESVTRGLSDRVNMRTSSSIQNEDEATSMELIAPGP
UniProt P19111, sequence (whole entry, looked up): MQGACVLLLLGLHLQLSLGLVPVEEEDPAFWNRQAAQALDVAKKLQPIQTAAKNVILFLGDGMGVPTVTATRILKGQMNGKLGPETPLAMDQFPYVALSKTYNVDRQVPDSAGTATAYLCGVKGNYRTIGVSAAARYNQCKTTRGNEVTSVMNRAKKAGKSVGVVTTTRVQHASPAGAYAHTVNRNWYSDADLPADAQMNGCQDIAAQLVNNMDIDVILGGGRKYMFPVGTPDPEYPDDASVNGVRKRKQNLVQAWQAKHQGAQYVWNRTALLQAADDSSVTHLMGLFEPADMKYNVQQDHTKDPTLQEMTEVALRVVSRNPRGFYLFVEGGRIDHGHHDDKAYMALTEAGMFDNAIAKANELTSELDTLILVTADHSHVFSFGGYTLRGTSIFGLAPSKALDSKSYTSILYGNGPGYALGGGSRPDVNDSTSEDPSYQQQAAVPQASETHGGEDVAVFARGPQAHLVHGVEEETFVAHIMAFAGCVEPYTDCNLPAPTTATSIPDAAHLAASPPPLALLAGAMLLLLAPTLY
UniProt Q21974, sequence (whole entry, unmodified, looked up): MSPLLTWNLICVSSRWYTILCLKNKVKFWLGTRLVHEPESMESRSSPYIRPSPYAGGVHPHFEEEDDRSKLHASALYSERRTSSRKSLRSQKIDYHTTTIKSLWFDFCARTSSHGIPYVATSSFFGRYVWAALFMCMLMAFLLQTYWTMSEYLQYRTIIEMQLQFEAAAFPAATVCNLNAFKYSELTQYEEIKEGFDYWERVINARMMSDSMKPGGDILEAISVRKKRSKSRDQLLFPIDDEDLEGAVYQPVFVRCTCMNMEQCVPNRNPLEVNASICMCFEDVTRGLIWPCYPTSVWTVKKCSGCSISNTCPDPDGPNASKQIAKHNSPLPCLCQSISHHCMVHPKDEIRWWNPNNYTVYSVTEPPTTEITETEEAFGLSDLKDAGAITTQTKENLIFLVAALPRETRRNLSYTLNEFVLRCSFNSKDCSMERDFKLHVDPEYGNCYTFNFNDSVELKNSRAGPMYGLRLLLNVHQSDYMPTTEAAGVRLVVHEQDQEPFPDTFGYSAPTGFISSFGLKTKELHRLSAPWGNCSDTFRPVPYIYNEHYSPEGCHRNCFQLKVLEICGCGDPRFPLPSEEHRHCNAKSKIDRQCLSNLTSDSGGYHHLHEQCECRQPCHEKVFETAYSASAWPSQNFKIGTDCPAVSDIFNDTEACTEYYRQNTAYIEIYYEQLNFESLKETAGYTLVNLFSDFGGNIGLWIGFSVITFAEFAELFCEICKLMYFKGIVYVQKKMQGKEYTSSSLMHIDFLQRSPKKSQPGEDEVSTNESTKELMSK
UniProt P08173, sequence (whole entry, looked up): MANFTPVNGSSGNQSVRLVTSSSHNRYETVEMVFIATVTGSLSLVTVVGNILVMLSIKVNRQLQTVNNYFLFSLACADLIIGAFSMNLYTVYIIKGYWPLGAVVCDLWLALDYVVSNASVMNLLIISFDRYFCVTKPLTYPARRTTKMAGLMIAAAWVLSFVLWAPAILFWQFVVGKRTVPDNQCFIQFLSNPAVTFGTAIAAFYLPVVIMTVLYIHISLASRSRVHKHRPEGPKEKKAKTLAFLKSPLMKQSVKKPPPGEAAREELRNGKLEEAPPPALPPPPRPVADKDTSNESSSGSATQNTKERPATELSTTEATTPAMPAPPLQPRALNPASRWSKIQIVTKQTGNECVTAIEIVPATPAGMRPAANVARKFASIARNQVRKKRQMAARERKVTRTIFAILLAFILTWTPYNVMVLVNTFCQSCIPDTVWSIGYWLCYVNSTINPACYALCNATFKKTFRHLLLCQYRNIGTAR
UniProt P31652, sequence (whole entry, looked up): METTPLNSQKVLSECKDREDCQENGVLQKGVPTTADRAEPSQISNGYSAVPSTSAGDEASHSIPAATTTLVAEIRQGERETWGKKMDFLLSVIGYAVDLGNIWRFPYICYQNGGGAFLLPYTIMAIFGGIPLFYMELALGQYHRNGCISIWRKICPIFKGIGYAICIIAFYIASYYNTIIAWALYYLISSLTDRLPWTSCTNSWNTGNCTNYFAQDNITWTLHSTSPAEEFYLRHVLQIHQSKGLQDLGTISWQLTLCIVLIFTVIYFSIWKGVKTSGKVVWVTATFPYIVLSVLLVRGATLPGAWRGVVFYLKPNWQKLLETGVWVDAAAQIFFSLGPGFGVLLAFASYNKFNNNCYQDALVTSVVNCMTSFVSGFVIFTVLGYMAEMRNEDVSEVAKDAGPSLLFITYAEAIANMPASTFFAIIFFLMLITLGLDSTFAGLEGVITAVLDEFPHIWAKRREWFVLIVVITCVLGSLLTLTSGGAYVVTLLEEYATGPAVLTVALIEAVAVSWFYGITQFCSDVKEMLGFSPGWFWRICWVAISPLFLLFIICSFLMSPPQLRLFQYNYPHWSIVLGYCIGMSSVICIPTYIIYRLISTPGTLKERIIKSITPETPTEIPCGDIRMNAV

CC(=O)Oc1ccccc1C(=O)O  current change (unc-8 (Caenorhabditis elegans, UniProt Q21974, G387E); ion current, two-electrode voltage clamp; Xenopus oocytes coexpressing MEC-2; 30 µM, -85 mV; reference: uninjected oocytes, positive = inhibition): -0.071 µA
[Na+].[Na+].[Na+].[O]=[V]([O-])([O-])[O-]  Km (ALPI (Bos taurus, UniProt P19111); 6.68 µM, together with: DiFMUP substrate): 1.3 ± 0.3 µM
O=c1cc(-c2ccccc2OCc2ccc(-c3cn[nH]c3)cc2)ncn1C1CCCCC1O (centres unmarked)  ΔpEC50 of ACh (CHRM1; positive allosteric modulator, IP1 accumulation; CHO-M1 cells; 1 µM, 60 min, 37 °C, together with: ACh; reference: ACh alone, higher = stronger potentiation): 1.69 ± 0.18 log units
B1  methylation conversion (SETD7 (Homo sapiens, UniProt Q8WTS6); peptide methylation, substrate, MALDI-TOF MS; 10 µM, 3 h, pH 8.0, 37 °C, enzyme 500 nM, together with: SAM 30 µM): ~65%
O=C(O)c1ccc(COc2ccccc2-c2cc(=O)n(C3CCCCC3O)cn2)cc1 (centres unmarked)  ΔpEC50 of ACh (CHRM1; positive allosteric modulator, IP1 accumulation; CHO-M1 cells; 10 µM, 60 min, 37 °C, together with: ACh; reference: ACh alone, higher = stronger potentiation): 1.1 ± 0.14 log units
Nc1nc2c(ncn2[C@@H]2O[C@@H]3COP(O)(=S)O[C@H]4[C@@H](O)[C@H](n5cnc6c(=O)[nH]c(N)nc65)O[C@@H]4COP(O)(=S)O[C@H]3[C@H]2O)c(=O)[nH]1 (some centres unmarked)  Kd (T1, c-di-GMP riboswitch (Clostridium acetobutylicum); competitor, competition gel-shift; 4-24 h, pH 6.8, 22 °C, together with: radiolabelled c-di-GMP): 3.6 nM and 4 nM
CCCn1cc(-c2ccc(COc3ccccc3-c3cc(=O)n(C4CCCCC4O)cn3)cc2)cn1 (centres unmarked)  change in baseline activity (CHRM1; allosteric agonist, IP1 accumulation; CHO-M1 cells; 1 µM, unit not given; reference: maximum ACh response): 52.6 ± 2.7
CN(C)Cc1cc(OCCC[18F])ccc1Sc1ccccc1N  binding change (Slc6a4 (Rattus norvegicus, UniProt P31652); in vitro autoradiography; 6-OHDA lesioned rat, left striatum brain sections; dose not given): 3.3%
O=c1cc(-c2ccccc2OCc2ccc(Br)cc2)ncn1C1CCCCC1O (centres unmarked)  change in baseline activity (CHRM1; allosteric agonist, IP1 accumulation; CHO-M1 cells; 1 µM, unit not given; reference: maximum ACh response): 2 ± 4
COc1ccc(C)c2sc(NC(=O)c3ccc(F)cc3F)nc12  activity (CHRM4 (Homo sapiens, UniProt P08173); calcium mobilization, positive allosteric modulator; CHO expressing hM4 and Gqi5; concentration not given, together with: acetylcholine EC20): inactive
CC[C@H](C)[C@H](NC(=O)[C@H](CC(C)C)NC(=O)[C@@H](NC(=O)[C@@H]1CCCN1C(=O)[C@@H](NC(=O)[C@@H]1CCCN1C(=O)[C@@H](NC(=O)[C@H](CO)NC(=O)[C@H](Cc1c[nH]cn1)NC(=O)[C@@H]1CCCN1C(=O)[C@H](CCCNC(=N)N)NC(=O)[C@H](CCCCN)NC(=O)[C@H](CCCNC(=N)N)NC(=O)[C@H](CCCNC(=N)N)NC(=O)[C@H](CCCNC(=N)N)NC(=O)[C@@H]1CCCN1C(=O)[C@H](CCCNC(=N)N)NC(=O)[C@H](CC(C)C)NC(=O)[C@H](CC(C)C)NC(=O)[C@H](Cc1c[nH]cn1)NC(=O)[C@H](Cc1c[nH]cn1)NC(=O)CNC(=O)[C@@H](N)CSSC[C@H](N)C(=O)NCC(=O)N[C@@H](Cc1c[nH]cn1)C(=O)N[C@@H](Cc1c[nH]cn1)C(=O)N[C@@H](CC(C)C)C(=O)N[C@@H](CC(C)C)C(=O)N[C@@H](CCCNC(=N)N)C(=O)N1CCC[C@H]1C(=O)N[C@@H](CCCNC(=N)N)C(=O)N[C@@H](CCCNC(=N)N)C(=O)N[C@@H](CCCNC(=N)N)C(=O)N[C@@H](CCCCN)C(=O)N[C@@H](CCCNC(=N)N)C(=O)N1CCC[C@H]1C(=O)N[C@@H](Cc1c[nH]cn1)C(=O)N[C@@H](CO)C(=O)N[C@H](C(=O)N1CCC[C@H]1C(=O)N[C@H](C(=O)N1CCC[C@H]1C(=O)N[C@H](C(=O)N[C@@H](CC(C)C)C(=O)N[C@H](C(=O)N[C@@H](Cc1ccccc1)C(=O)N[C@@H](CCCNC(=N)N)C(=O)N[C@@H](CO)C(=O)N1CCC[C@H]1C(=O)O)[C@@H](C)CC)[C@@H](C)CC)[C@@H](C)O)[C@@H](C)CC)[C@@H](C)CC)[C@@H](C)O)[C@@H](C)CC)C(=O)N[C@@H](Cc1ccccc1)C(=O)N[C@@H](CCCNC(=N)N)C(=O)N[C@@H](CO)C(=O)N1CCC[C@H]1C(=O)O  binding to PBMC subsets (PTPRC (Homo sapiens, UniProt P08575); flow cytometry; healthy donor PBMC; concentration not given, together with: MDA-MB-231 cells; reference: before TNBC cell exposure): decreased
Clc1ccc2[nH]ccc2c1  conversion (Dehaloperoxidase B, ferric (Amphitrite ornata, UniProt Q9NAV7); substrate, HPLC; 5% methanol; 5 min, pH 7, 25 °C, enzyme 10 µM, together with: H2O2 500 µM): 37.5%
C=CC(C)(C)c1cc(C(=O)c2c(-c3cc(-c4cc5cc(C(C)(C)C=C)c(O)cc5oc4=O)c(O)cc3O)oc3cc(O)ccc23)c(O)cc1O  concentration doubling activity (quinone reductase; inducer; Hepa1c1c7): 7.4 µM
COC(=O)c1scc(C)c1NC(=O)CN1CCN(C(C)C)CC1  capacity factor k′ (SCN10A (Homo sapiens, UniProt Q9Y5Y9); cell membrane chromatography; higher = stronger binding): 1.4

For quick reference, copied from above:
CC(=O)Oc1ccccc1C(=O)O  current change (unc-8 (Caenorhabditis elegans, UniProt Q21974, G387E); ion current, two-electrode voltage clamp; Xenopus oocytes coexpressing MEC-2; 30 µM, -85 mV; reference: uninjected oocytes, positive = inhibition): -0.071 µA
B1  methylation conversion (SETD7 (Homo sapiens, UniProt Q8WTS6); peptide methylation, substrate, MALDI-TOF MS; 10 µM, 3 h, pH 8.0, 37 °C, enzyme 500 nM, together with: SAM 30 µM): ~65%
